Assay results collected from several papers.
A part holds a random share of what one study measured.
UniProt P36896, sequence (whole entry, looked up): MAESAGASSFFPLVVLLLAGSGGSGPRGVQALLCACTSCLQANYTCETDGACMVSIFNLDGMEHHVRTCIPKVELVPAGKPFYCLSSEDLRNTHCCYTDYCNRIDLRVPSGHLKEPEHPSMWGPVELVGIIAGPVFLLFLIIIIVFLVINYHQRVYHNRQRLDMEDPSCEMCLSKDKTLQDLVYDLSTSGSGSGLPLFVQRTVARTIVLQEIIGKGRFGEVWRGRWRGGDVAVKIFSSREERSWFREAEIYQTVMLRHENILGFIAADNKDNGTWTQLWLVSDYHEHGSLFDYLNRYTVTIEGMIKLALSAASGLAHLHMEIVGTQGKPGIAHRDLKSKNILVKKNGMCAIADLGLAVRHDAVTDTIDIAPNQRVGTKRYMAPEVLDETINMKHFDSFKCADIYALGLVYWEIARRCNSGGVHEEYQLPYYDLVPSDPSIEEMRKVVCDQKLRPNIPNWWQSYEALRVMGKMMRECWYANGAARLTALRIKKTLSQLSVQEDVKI
UniProt Q86YV6, sequence (whole entry, looked up): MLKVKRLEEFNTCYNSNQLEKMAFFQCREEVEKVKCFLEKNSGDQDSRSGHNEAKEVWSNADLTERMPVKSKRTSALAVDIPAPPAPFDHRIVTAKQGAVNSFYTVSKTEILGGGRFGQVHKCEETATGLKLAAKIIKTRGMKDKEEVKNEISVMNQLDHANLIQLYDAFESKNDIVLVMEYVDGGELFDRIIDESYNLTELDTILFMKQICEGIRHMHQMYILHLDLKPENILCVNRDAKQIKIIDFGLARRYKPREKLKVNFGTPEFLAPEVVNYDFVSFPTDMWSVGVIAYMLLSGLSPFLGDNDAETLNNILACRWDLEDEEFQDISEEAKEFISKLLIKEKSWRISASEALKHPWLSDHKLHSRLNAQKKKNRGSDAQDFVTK
UniProt O95382, sequence (whole entry, looked up): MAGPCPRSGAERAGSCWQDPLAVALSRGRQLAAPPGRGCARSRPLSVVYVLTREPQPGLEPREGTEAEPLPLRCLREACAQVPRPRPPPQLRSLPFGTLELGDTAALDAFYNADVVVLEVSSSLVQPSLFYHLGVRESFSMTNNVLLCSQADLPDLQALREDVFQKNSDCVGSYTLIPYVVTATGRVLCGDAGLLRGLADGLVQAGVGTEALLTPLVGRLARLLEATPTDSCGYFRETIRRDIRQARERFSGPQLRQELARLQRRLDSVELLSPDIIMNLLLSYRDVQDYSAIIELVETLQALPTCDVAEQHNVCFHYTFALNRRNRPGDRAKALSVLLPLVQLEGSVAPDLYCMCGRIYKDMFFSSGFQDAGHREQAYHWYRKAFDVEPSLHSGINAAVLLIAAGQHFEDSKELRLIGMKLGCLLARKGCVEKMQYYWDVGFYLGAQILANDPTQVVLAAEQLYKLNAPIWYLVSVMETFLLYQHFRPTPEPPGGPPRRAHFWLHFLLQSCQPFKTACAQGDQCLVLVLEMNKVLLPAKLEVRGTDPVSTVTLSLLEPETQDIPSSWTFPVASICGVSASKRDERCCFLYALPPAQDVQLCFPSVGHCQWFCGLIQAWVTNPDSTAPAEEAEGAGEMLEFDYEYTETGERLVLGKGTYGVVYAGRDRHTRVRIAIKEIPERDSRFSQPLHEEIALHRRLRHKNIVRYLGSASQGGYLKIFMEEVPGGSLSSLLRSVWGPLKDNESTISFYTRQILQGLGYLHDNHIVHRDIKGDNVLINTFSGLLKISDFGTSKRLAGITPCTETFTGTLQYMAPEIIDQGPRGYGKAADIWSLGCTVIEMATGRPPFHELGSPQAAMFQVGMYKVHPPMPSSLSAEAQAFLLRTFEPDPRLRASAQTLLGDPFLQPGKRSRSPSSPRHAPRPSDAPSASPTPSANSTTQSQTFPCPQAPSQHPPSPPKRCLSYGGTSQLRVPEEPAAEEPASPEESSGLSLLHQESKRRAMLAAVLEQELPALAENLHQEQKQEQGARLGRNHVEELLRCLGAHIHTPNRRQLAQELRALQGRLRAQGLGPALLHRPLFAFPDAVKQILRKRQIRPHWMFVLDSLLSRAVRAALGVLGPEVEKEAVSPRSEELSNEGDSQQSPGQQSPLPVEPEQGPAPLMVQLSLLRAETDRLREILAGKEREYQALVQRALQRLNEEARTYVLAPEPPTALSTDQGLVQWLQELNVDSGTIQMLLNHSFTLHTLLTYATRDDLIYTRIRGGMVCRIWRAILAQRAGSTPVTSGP
UniProt P33981, sequence (whole entry, looked up): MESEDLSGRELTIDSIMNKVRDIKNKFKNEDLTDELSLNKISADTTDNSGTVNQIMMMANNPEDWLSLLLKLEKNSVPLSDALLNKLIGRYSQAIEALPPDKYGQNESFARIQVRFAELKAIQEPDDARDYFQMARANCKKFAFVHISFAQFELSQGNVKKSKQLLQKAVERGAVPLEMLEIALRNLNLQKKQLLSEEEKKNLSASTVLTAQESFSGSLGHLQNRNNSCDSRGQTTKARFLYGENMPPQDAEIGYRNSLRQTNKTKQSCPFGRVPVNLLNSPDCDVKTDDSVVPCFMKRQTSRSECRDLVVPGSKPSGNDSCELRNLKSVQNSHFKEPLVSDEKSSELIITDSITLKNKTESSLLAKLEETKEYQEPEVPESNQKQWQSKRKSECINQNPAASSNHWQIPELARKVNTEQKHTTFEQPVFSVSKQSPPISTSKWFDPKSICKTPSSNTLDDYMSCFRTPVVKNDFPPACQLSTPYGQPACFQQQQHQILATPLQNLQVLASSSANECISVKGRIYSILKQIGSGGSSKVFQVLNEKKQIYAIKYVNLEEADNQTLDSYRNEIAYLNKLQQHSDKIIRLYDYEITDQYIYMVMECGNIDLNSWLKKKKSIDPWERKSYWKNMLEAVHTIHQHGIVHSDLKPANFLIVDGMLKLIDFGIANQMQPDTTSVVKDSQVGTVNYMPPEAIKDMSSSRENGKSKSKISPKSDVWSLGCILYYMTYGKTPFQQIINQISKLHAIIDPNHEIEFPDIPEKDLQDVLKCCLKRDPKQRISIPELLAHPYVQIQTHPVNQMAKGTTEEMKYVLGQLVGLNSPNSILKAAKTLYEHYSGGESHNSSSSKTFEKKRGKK
UniProt O75676, sequence (whole entry, looked up): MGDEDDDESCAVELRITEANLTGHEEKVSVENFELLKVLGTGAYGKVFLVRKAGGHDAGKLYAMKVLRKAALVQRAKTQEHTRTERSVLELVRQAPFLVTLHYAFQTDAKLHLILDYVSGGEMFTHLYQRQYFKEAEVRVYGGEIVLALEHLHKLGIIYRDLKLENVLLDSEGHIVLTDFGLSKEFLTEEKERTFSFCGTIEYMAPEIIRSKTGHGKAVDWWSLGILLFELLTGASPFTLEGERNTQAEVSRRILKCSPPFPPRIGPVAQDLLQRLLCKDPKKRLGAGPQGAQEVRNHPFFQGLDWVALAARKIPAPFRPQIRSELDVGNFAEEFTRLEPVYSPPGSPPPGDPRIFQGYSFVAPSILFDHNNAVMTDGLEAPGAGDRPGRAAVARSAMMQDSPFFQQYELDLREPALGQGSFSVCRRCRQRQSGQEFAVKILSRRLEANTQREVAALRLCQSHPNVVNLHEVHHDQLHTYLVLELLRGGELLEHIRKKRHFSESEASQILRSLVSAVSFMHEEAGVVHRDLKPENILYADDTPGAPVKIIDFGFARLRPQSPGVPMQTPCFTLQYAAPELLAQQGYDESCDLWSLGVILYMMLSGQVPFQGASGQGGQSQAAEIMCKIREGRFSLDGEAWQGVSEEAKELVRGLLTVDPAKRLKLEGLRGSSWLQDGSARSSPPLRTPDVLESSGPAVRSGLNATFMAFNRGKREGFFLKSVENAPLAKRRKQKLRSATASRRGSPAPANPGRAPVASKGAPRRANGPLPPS

Set 1
Structure (SMILES): Cc1c(NC(=O)c2cc(C(N)=O)nc3cc(F)ccc23)c(C(F)(F)F)nn1Cc1ccc(C(C)(C)C)cc1
Read-out: cell-free assay
Method: competition with immobilised ligand
Tested at: 1 µM
Myosin light chain kinase family member 4 (MYLK4, Homo sapiens, UniProt Q86YV6) — remaining binding: 100%.
It gave 100% for remaining binding (Mitogen-activated protein kinase kinase kinase 6 (MAP3K6, Homo sapiens, UniProt O95382)).
For Activin receptor type-1B (ACVR1B, Homo sapiens, UniProt P36896): remaining binding read 80%.
For Dual specificity protein kinase TTK (TTK, Homo sapiens, UniProt P33981): remaining binding read 79%.
For Mitogen-activated protein kinase kinase kinase 15 (MAP3K15, Homo sapiens, UniProt Q6ZN16): remaining binding read 95%.
For Ephrin type-A receptor 8 (EPHA8, Homo sapiens, UniProt P29322): remaining binding read 100%.
It gave 92% for remaining binding (Ribosomal protein S6 kinase alpha-4, N-terminal kinase domain (RPS6KA4, Homo sapiens, UniProt O75676)).

Set 2
Cell line: A-375
Tested at: 100 µM
Time: 36 h
NC(CO)(CO)CO gave a viability of 107%.
The viability of O=C1Nc2ccc(Cl)cc2[C@@](C#CC2CC2)(C(F)(F)F)O1 is reported as 1.73%.
COC(=O)[C@@H]1CC2=CC(=O)CC[C@]2(C)[C@@]23O[C@@H]2C[C@@]2(C)[C@@H](CC[C@@]24CCC(=O)O4)[C@H]13 has a viability of 102%.
CN(C)c1ccc(C(=C2C=CC(=[N+](C)C)C=C2)c2ccc(N(C)C)cc2)cc1 has a viability of 5.91%.
Cn1c(=O)c2c(ncn2CC(=O)O)n(C)c1=O has a viability of 102%.
The viability of CN(C)[C@@H]1C(O)=C(C(N)=O)C(=O)[C@@]2(O)C(O)=C3C(=O)c4c(O)ccc(Cl)c4[C@@](C)(O)[C@H]3C[C@@H]12 is reported as 75.5%.
With CCCCCCCCN=c1ccn(CCCCCCCCCCn2ccc(=NCCCCCCCC)cc2)cc1 the viability was -0.221%.
O=c1[nH]cc(F)c(=O)[nH]1 has a viability of 57.8%.
The viability of N#Cc1ccc2[nH]cc(CCCCN3CCN(c4ccc5oc(C(N)=O)cc5c4)CC3)c2c1 is reported as 2.76%.
For O=P(O)(O)C(O)(Cn1ccnc1)P(=O)(O)O, the viability was 79.2%.
For NC(=O)CC[C@H](N)C(=O)O, the viability was 106%.
O=S(=O)(O)CCSSCCS(=O)(=O)O gave a viability of 109%.

Set 3
Target: Diamine acetyltransferase 1 (Homo sapiens, UniProt P21673)
Mode: inhibitor
Tested at: 10 µM
Baseline: control
Residues (P21673 1-171): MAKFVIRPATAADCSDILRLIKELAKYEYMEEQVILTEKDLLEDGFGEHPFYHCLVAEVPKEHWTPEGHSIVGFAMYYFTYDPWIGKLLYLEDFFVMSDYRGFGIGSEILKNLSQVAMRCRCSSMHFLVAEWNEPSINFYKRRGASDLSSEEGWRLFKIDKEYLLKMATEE
With COc1c(O)cc2oc(-c3ccc(O)cc3)cc(=O)c2c1O the remaining activity was 99.4%.
CC(=O)c1ccc(C)cc1O gave a remaining activity of 96.1%.
For COc1ccc([C@@H]2COc3cc(O[C@@H]4O[C@H](CO)[C@@H](O)[C@H](O)[C@H]4O)ccc3C2)c(O)c1OC, the remaining activity was 75.4%.
For CC(=O)OCc1ccccc1, the remaining activity was 111%.
COC(=O)C1=CO[C@@H](O[C@@H]2O[C@H](CO[C@@H]3O[C@H](CO)[C@@H](O)[C@H](O)[C@H]3O)[C@@H](O)[C@H](O)[C@H]2O)[C@@H]2C(CO)=CC[C@H]12 has a remaining activity of 102%.
COC(=O)C1=CO[C@@H](O)[C@@H]2C(CO)=CC[C@H]12 gave a remaining activity of 97.2%.
CCC/C=C1\OC(=O)C2=C1CCC=C2 gave a remaining activity of 94.2%.
CCCCCCC[C@H](O)CC(=O)CCc1ccc(O)c(OC)c1 has a remaining activity of 100%.
The remaining activity of O=C(CCc1ccccc1)C[C@@H](O)/C=C/c1ccccc1 is reported as 101%.
The remaining activity of C[C@@H]1CC[C@@]2(OC1)O[C@H]1C[C@H]3[C@@H]4CC=C5C[C@@H](O)CC[C@]5(C)[C@H]4CC[C@]3(C)[C@H]1[C@@H]2C is reported as 93.3%.
The remaining activity of C[C@@H]1O[C@@H](O[C@H]2[C@H](O[C@H]3CC[C@@]4(C)[C@@H](CC[C@]5(C)[C@@H]4CC=C4[C@@H]6CC(C)(C)CC[C@]6(C(=O)O[C@@H]6O[C@H](CO[C@@H]7O[C@H](CO)[C@@H](O)[C@H](O)[C@H]7O)[C@@H](O)[C@H](O)[C@H]6O)CC[C@]45C)[C@]3(C)CO)OC[C@H](O)[C@@H]2O)[C@H](O)[C@H](O[C@@H]2O[C@H](CO)[C@@H](O)[C@H](O)[C@H]2O)[C@H]1O is reported as 99.4%.
C[C@@H]1O[C@@H](O[C@H]2[C@H](OC(=O)[C@]34CCC(C)(C)C[C@H]3C3=CC[C@@H]5[C@@]6(C)C[C@H](O)[C@H](O[C@@H]7O[C@H](CO[C@@H]8O[C@H](CO[C@@H]9O[C@H](CO)[C@@H](O)[C@H](O)[C@H]9O)[C@@H](O)[C@H](O)[C@H]8O)[C@@H](O)[C@H](O)[C@H]7O)C(CO)(CO)[C@@H]6CC[C@@]5(C)[C@]3(C)C[C@H]4O)OC[C@H](O)[C@@H]2O)[C@H](O)[C@H](O)[C@H]1O[C@@H]1OC[C@@H](O)[C@H](O[C@@H]2OC[C@](O)(CO)[C@H]2O)[C@H]1O has a remaining activity of 89.6%.

Set 4
Target: Protein-tyrosine kinase 2-beta (PTK2B, Homo sapiens, UniProt Q14289)
UniProt Q14289, sequence (whole entry, looked up): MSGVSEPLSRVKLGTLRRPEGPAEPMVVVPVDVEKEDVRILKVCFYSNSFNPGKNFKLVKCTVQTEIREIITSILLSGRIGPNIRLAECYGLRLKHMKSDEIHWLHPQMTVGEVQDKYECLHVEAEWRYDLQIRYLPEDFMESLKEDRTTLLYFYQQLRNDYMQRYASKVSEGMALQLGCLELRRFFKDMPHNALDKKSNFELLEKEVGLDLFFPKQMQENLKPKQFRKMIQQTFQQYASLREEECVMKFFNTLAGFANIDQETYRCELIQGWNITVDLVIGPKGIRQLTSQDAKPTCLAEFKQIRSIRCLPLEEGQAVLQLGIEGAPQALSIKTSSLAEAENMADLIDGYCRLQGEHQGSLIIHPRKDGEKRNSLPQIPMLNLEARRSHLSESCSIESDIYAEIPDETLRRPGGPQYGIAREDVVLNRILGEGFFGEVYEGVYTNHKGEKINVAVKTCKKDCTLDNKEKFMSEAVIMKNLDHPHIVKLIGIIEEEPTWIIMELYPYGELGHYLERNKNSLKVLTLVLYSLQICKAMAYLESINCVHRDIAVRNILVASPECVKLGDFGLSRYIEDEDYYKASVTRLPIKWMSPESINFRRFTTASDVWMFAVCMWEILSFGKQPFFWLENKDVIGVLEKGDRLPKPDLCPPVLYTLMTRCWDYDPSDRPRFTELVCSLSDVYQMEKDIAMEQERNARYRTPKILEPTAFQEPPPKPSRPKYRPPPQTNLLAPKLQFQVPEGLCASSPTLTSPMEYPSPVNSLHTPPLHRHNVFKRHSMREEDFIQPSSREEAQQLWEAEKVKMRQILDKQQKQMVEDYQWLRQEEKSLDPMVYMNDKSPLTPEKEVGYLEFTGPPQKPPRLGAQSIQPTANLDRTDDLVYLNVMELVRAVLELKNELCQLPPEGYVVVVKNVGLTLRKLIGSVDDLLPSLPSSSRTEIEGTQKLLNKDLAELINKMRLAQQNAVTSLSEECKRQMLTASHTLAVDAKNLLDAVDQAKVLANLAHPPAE
Read-out: enzyme activity
Mode: inhibitor
Tested at: 0.5 µM
Baseline: control
The remaining activity of O=Nc1c(-c2c(O)[nH]c3ccccc23)[nH]c2ccccc12 is reported as 65.8%.
With CC(C)n1cnc2c(Nc3cccc(Cl)c3)nc(NCCO)nc21 the remaining activity was 85%.
For c1ccc2c(-c3ccncc3)c[nH]c2c1, the remaining activity was 95.3%.
O=c1cc(N2CCOCC2)oc2c(-c3ccccc3)cccc12 has a remaining activity of 107%.
The remaining activity of N#CC(c1ccnc(NCCc2cccnc2)n1)c1nc2ccccc2s1 (centres unmarked) is reported as 98.7%.
O=C1c2ccccc2-c2nc3nnnn3nc21 gave a remaining activity of 52.1%.
For N#C/C(=C(/N)SC1C=CC=CC1)c1cccc(C(O)c2ccncc2)c1 (centres unmarked), the remaining activity was 96.2%.
O=c1c(-c2ccc(F)cc2)c(-c2ccncc2)[nH]n1-c1ccc(Cl)cc1 has a remaining activity of 91.7%.
For O=C1NC(=O)c2c1c1c3ccccc3[nH]c1c1[nH]c3cc(Br)ccc3c21, the remaining activity was 79.5%.
For CC(C)N(CCC(=O)c1ccc2ccccc2c1)Cc1ccccc1, the remaining activity was 106%.
For c1ccc(-c2n[nH]c3c2oc2ccccc23)cc1, the remaining activity was 96.8%.
With CNc1cc2c(Nc3cccc(Br)c3)ncnc2cn1 the remaining activity was 94.5%.
With O=C1Nc2ccccc2/C1=C\c1c(Cl)[nH]c2ccccc12 the remaining activity was 95.5%.
O=C(c1cc2cc(O)ccc2[nH]1)c1cc2cc(O)ccc2[nH]1 gave a remaining activity of 85.5%.
CC(C)(C)c1nc2c3cc[nH]c(=O)c3c3cc(F)ccc3c2[nH]1 has a remaining activity of 48.4%.
O=C(c1ccccc1)c1ccc(N2CCOCC2)cc1O has a remaining activity of 102%.
NC(=O)c1cccc(-c2cc(Nc3ccc(OC(F)(F)F)cc3)ncn2)c1 gave a remaining activity of 94.6%.
CCN(CC)CCCCN1c2ccccc2Oc2ccc(Cl)cc21 gave a remaining activity of 99.6%.
CCCCc1c(-c2ccc(OC)cc2)[nH]c2nccnc12 gave a remaining activity of 100%.
The remaining activity of Clc1ccc(Nc2nnc(Cc3ccncc3)c3ccccc23)cc1 is reported as 102%.
COc1ccc2c(c1)c(C1=C(c3c[nH]c4ccccc34)C(=O)NC1=O)cn2CCCN(C)C gave a remaining activity of 104%.
The remaining activity of COc1cccc(-c2cc(=O)c3ccccc3o2)c1N is reported as 91.2%.
The remaining activity of O=C(O)/C=C/c1cc(Br)c(Br)c(Br)c1Br is reported as 93.3%.
For NC(=O)c1ccc(-c2nc(-c3ccc4c(c3)OCCO4)c(-c3ccccn3)[nH]2)cc1, the remaining activity was 101%.
With O=C1Nc2ccc(Br)cc2/C1=C/c1cc2c([nH]1)CCCC2 the remaining activity was 82.4%.

For quick reference, copied from above (set 1):
Myosin light chain kinase family member 4 (MYLK4, Homo sapiens, UniProt Q86YV6) — remaining binding: 100%.
It gave 100% for remaining binding (Mitogen-activated protein kinase kinase kinase 6 (MAP3K6, Homo sapiens, UniProt O95382)).
For Activin receptor type-1B (ACVR1B, Homo sapiens, UniProt P36896): remaining binding read 80%.
For Dual specificity protein kinase TTK (TTK, Homo sapiens, UniProt P33981): remaining binding read 79%.
For Mitogen-activated protein kinase kinase kinase 15 (MAP3K15, Homo sapiens, UniProt Q6ZN16): remaining binding read 95%.
For Ephrin type-A receptor 8 (EPHA8, Homo sapiens, UniProt P29322): remaining binding read 100%.
